Assay results pooled from the literature.
Compare with care: the assays were run in different laboratories. Numbers after ± are the reported error.
Alpha-carbonic anhydrase: Alpha-carbonic anhydrase (Enterococcus faecium, UniProt Q3XYE8)
USP20 ZnF-UBD domain: Ubiquitin carboxyl-terminal hydrolase 20, ZnF-UBD domain (USP20, Homo sapiens, UniProt Q9Y2K6)
Chain of UniProt Q9Y2K6 (whole entry, looked up): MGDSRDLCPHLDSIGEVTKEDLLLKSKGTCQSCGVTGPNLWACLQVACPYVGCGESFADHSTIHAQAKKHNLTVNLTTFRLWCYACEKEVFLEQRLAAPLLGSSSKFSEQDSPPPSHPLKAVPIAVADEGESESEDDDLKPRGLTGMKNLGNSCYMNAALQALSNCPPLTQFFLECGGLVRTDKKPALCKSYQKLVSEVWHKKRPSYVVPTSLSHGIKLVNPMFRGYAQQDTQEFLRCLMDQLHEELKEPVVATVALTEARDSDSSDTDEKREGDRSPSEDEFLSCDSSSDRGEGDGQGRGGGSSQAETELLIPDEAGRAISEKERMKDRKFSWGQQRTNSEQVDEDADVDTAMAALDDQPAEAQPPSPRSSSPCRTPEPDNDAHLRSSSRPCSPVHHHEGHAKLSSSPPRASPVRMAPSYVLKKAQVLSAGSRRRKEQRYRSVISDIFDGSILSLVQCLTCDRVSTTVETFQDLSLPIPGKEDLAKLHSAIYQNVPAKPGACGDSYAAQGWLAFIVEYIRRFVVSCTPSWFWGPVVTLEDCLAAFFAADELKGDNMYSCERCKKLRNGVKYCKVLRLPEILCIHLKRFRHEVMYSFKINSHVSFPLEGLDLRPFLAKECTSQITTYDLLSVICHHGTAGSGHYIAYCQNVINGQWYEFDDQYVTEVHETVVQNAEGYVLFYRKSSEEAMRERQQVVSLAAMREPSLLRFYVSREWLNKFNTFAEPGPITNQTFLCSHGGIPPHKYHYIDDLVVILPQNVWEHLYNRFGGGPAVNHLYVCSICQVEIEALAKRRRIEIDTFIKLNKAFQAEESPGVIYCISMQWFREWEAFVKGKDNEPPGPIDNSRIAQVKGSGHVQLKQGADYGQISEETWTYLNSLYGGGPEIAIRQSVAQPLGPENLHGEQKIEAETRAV
ZBTB11/CRBN: ZBTB11/CRBN (Homo sapiens, UniProt O95625+Q96SW2)
Chain of UniProt Q96SW2 (whole entry, looked up): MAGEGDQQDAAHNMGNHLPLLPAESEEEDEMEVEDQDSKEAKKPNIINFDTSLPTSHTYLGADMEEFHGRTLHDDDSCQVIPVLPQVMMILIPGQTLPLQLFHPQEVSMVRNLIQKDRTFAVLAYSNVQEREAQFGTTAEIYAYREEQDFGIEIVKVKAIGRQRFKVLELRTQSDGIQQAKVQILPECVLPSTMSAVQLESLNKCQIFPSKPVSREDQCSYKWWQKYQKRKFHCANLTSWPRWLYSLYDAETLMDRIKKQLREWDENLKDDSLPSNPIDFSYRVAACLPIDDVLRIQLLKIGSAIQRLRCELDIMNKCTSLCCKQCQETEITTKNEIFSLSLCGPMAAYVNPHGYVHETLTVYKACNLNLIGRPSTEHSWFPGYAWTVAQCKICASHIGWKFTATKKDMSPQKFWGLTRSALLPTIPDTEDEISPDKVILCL
Chain of UniProt O95625 (whole entry, looked up): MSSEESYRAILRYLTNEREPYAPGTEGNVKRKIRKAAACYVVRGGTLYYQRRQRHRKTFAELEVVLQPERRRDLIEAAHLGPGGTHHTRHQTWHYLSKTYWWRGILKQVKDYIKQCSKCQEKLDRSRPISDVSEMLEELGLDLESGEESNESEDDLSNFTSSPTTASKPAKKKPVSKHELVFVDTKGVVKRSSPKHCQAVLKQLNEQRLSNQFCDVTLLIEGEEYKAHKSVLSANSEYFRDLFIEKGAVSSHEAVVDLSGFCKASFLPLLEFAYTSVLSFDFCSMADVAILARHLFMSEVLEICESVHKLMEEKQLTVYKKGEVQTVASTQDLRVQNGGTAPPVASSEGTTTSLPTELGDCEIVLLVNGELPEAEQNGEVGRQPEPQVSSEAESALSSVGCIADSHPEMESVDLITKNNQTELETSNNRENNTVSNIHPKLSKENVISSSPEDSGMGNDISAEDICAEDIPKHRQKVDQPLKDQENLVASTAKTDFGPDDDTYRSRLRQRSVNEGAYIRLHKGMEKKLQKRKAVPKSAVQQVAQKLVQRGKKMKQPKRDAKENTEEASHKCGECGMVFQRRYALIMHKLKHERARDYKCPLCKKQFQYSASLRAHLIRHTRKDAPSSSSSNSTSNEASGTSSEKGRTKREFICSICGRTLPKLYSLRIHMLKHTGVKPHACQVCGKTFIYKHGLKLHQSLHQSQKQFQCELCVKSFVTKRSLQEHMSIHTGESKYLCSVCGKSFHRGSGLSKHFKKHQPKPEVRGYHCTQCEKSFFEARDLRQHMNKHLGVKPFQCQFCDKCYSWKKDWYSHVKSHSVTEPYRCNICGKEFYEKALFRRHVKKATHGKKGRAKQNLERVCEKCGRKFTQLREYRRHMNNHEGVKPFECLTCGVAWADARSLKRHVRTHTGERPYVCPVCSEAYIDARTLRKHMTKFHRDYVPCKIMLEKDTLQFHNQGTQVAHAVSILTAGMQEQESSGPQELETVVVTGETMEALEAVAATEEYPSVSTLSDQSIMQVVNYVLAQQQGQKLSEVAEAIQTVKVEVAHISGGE
USP49 ZnF-UBD domain: Ubiquitin carboxyl-terminal hydrolase 49, ZnF-UBD domain (USP49, Homo sapiens, UniProt Q70CQ1)
Chain of UniProt Q70CQ1 (whole entry, looked up): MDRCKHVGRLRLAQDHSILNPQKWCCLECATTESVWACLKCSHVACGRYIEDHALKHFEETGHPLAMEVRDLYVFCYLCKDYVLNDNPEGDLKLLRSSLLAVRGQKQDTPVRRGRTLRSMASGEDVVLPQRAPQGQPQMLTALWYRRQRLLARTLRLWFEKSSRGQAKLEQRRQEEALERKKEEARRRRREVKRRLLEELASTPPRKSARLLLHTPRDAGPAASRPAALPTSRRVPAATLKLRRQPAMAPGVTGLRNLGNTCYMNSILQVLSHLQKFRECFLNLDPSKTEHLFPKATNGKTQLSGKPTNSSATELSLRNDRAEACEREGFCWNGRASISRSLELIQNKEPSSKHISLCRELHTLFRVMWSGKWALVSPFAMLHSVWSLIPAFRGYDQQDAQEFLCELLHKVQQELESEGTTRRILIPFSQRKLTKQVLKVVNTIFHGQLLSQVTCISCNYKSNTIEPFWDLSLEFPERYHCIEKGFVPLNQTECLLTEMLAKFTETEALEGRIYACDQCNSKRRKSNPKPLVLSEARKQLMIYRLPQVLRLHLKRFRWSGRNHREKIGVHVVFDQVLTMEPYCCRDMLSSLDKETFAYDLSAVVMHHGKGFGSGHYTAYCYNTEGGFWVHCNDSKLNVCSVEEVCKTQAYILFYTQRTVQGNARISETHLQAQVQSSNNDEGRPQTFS
Chain of UniProt P07947 (whole entry, looked up): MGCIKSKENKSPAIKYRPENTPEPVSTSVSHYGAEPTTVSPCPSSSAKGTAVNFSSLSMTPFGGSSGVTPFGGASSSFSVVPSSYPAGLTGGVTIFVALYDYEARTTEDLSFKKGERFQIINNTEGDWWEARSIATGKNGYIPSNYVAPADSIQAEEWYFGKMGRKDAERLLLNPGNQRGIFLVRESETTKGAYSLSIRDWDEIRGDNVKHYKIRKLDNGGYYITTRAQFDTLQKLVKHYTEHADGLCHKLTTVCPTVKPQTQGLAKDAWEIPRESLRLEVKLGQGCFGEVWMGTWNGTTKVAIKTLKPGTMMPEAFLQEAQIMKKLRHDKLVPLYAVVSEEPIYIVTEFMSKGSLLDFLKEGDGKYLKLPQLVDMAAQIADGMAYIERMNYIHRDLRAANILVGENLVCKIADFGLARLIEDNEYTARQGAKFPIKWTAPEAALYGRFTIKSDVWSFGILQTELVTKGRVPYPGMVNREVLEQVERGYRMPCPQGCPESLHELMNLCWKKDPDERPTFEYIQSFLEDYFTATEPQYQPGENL
Chain of UniProt P51617 (whole entry, looked up): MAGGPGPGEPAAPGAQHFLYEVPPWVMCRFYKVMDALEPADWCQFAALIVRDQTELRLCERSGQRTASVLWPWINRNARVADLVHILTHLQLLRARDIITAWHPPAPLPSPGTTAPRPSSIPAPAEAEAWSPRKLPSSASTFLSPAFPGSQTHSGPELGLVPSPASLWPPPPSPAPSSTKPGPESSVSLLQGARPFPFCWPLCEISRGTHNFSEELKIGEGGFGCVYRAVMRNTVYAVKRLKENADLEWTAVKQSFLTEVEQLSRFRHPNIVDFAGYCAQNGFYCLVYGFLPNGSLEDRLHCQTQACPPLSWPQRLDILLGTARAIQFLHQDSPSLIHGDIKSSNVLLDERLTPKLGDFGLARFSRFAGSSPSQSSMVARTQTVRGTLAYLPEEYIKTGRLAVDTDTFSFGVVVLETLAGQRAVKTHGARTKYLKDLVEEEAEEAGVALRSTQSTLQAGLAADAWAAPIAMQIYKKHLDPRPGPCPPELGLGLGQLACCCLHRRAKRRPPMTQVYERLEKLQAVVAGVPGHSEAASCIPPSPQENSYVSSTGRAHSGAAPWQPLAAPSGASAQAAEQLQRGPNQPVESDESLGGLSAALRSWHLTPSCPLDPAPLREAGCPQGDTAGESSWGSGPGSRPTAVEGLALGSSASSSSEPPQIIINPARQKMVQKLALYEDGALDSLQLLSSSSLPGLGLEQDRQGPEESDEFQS

Structure (SMILES) | target or system | assay | test system | setting | how to read | quantity | value
CC1(C)CCN(CC(=O)Nc2nnc(S(N)(=O)=O)s2)CC1 | Alpha-carbonic anhydrase | CO2 hydration, inhibitor, stopped-flow kinetics |  |  |  | Ki | 0.0339 µM
O=C(O)CCc1ccccc1 | USP20 ZnF-UBD domain |  |  |  |  | Kd | > 1000 µM
NS(=O)(=O)c1nnc(NC(=O)C2CCC3(CCC3)CC2)s1 | Alpha-carbonic anhydrase | CO2 hydration, inhibitor, stopped-flow kinetics |  |  |  | Ki | 0.0544 µM
CCC(C)(NCCc1ccc(C(F)(F)F)c(Cl)c1)c1cccc(NC2=CC(=O)N(C3CCC(=O)NC3=O)C2=O)c1 (centres unmarked) | ZBTB11/CRBN | degrader, HiBiT | MOLT-4 | 5 h |  | DC50 | 0.44 ± 0.15 µM
O=C(O)Cc1cccnc1 | USP49 ZnF-UBD domain |  |  |  |  | Kd | 283 µM
C[C@H](O)[C@@H](O)[C@@H](O)[C@H](O)C(=O)O |  | binding, equilibrium dialysis LC-MS |  | 5 µM, thermostabilized A2AR-BRIL construct | relative to: no-protein control, direction not given | z-scored log2 fold change | 0.463
NS(=O)(=O)c1nnc(NC(=O)C2CCC3(CCCC3)CC2)s1 | Alpha-carbonic anhydrase | CO2 hydration, inhibitor, stopped-flow kinetics |  |  |  | Ki | 0.043 µM
CN1CCN(c2ccc(Nc3ncc4cc(C#N)c(=O)n(C5CCCC5)c4n3)cc2)CC1 | YES1 (Homo sapiens, UniProt P07947) |  |  |  |  | IC50 | 0.063 µM
O=C(O)CSc1nnc(NC(=O)COc2ccccc2)s1 | USP49 ZnF-UBD domain |  |  |  |  | Kd | > 1000 µM
O=C1CCC(N2C(=O)C=C(Nc3cccc(C4(NCCc5ccc(C(F)(F)F)c(Cl)c5)CCC4)c3)C2=O)C(=O)N1 (centres unmarked) | ZBTB11/CRBN | degrader, HiBiT | MOLT-4 | 5 h |  | DC50 | 0.22 ± 0.19 µM
NC(=O)c1ccc[n+]([C@@H]2O[C@H](COP(=O)([O-])OP(=O)(O)OC[C@H]3O[C@@H](n4cnc5c(N)ncnc54)[C@H](O)[C@@H]3O)[C@@H](O)[C@H]2O)c1 |  | binding, equilibrium dialysis LC-MS |  | 5 µM, thermostabilized A2AR-BRIL construct | relative to: no-protein control, direction not given | z-scored log2 fold change | 0.0457
CC1(C(=O)Nc2nnc(S(N)(=O)=O)s2)COC1 | Alpha-carbonic anhydrase | CO2 hydration, inhibitor, stopped-flow kinetics |  |  |  | Ki | 0.0205 µM
CCC(C)(NCCc1ccc(C)cc1)c1cccc(NC2=CC(=O)N(C3CCC(=O)NC3=O)C2=O)c1 (centres unmarked) | ZBTB11/CRBN | degrader, HiBiT luminescence, refers to: endogenous HiBiT-tagged protein |  |  |  | DC50 | 16 µM
Nc1nc(CC(=O)O)cs1 | USP20 ZnF-UBD domain |  |  |  |  | Kd | 895 µM
CC1CCCC(C(=O)Nc2nnc(S(N)(=O)=O)s2)C1 (centres unmarked) | Alpha-carbonic anhydrase | CO2 hydration, inhibitor, stopped-flow kinetics |  |  |  | Ki | 0.0458 µM
O=C(O)Cn1cnc2ccccc2c1=O | USP20 ZnF-UBD domain |  |  |  |  | Kd | 835 µM
CC[C@@H]1[C@H](F)C(=O)N[C@@H]1COc1nccc2cc(C(N)=O)c(OC)cc12 | IRAK1 (Homo sapiens, UniProt P51617) | ATP-site probe binding, ActivX profiling | THP-1 cell lysate | Lys2 site |  | IC50 | 3.2 µM

Excerpt of the above:
Structure (SMILES) | target or system | assay | test system | setting | how to read | quantity | value
O=C(O)Cn1cnc2ccccc2c1=O | USP20 ZnF-UBD domain |  |  |  |  | Kd | 835 µM
CC[C@@H]1[C@H](F)C(=O)N[C@@H]1COc1nccc2cc(C(N)=O)c(OC)cc12 | IRAK1 (Homo sapiens, UniProt P51617) | ATP-site probe binding, ActivX profiling | THP-1 cell lysate | Lys2 site |  | IC50 | 3.2 µM
